Measured values from different studies.
Parts stem from different laboratories: compare values within a part only.

Block 1
Target: Histone acetyltransferase KAT6A, winged helix 2, GST fusion (KAT6A, Homo sapiens, UniProt Q92794, residues 85-181)
Technique: protein binding microarray
Form: double-stranded DNA, one strand shown
Matrix: in vitro
Concentration: not given
Notes: 8-mer, flanks averaged, mean of 2 arrays, mostly near background
Baseline: not given
Direction: higher = stronger binding
Measurement: E-score
Residues (chain): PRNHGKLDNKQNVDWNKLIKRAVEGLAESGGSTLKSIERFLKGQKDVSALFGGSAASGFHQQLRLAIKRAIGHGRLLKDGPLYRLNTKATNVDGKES
AGGTCCAT: -0.0419
ATGCCATG: 0.058
GCAAAAAC: -0.0155
AAGGCCTG: 0.0693
TAGTGTCA: 0.0813
CATTTGGA: 0.0511
ATATAATG: -0.236
CGCAAGGA: 0.0549
GTATTGAC: -0.203
CCAGCAAA: 0.147
AAACGGCT: -0.102
CGGCTGTA: -0.0471
CTAAATTA: 0.114
AGGTGGGC: -0.0129
ATGCAAGC: 0.127
AACCTAAT: -0.0308
AAAGGGGT: -0.23
TATAGATA: -0.225
ACTACTTA: -0.175
CCGAACAC: -0.042
AGGTCCGA: 0.0988
CAACCTAA: 0.134
AACCTTGC: 0.0226
CTCGCCCC: 0.165
AACTCGAC: 0.114

Block 2
Target: RING finger protein unkempt homolog, zinc fingers 1-6, GST-SBP tag (UNK, Homo sapiens, UniProt Q9C0B0, residues 30-357)
Technique: RNA Bind-n-Seq
Form: RNA
Matrix: in vitro
Concentration: not given
Notes: RNA with constant flanks, human-mouse chimeric sites, ends assumed
Baseline: input RNA pool
Direction: higher = stronger binding
Measurement: bound/input enrichment
Construct (chain): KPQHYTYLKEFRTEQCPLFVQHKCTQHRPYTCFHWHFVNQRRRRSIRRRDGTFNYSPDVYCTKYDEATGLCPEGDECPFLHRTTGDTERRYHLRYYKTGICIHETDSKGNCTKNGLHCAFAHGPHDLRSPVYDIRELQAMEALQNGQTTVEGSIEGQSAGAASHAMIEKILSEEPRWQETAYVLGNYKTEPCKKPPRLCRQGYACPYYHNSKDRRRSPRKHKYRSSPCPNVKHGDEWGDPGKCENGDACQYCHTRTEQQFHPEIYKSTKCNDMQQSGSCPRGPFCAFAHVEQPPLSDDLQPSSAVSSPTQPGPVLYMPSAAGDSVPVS
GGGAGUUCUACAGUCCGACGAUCAUGGAGAAGGAUUCUCUGCCCCGCUUUGUGCGCUCUGAAUUUUAUAAGGAGCUAAUCAAGUAGUCAUCUGGUCAGGCUAUGAAAUCAUGCCCUGUGAGUUGAGUUACAUAAUAACCCGCACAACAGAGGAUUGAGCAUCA: 0.245 ratio
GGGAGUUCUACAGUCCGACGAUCGACUUUGGGACUGGUCCUCGUAAUGCAGCCUUCUAUAGCCCUCAUGGACAUAUAUUAGUGCUGGCUGGAUUUGGAAAUCUUCGAGGACAAAUGGAAGUAUGGGAUGUGAAAAACUACAAGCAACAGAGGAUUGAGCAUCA: 0.431 ratio
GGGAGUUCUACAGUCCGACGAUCAAACAUCUUCUCAAGCACAUUCCAAGCGAGAAUGCUGGGGUGAUCAUUGUUGCCCAUGUGCCUUCUGACUGAGCUUUAAUGCUGUUCCAUGUUACAUCUUUCCUUCACUCCAGAAUUGUUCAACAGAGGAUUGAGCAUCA: 0.141 ratio
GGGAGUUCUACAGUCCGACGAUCACACAAUAUGAGACCAACAGCAUGGACUUCAAAGUUGGGGCAGAUGGGACAGUCUUCGCCACUAGGGAGUUGAAGAUCCCCUCCGAGCAGGUGGCGUUCACGGUGACUGCAUGGGACAGCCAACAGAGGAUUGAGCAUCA: 0.262 ratio
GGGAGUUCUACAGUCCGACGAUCCAGCCUCAGAGCCCAGACUUCCUGGAUAUUACCAACCCUAAAGCGGUAUUAGAAAAUGCAUUGAGAAACUUCGCCUGUCUGACCACCGGAGAUGUGAUUGCCAUCAACUACAAUGAGAAGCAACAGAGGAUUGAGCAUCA: 0.427 ratio
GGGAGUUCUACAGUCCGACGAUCCACACACUCUUCUGCGGGACCCUCAUCUUGCAGGCCCGGGCCUAUGUGGGACCGCACGUCCUGGCAGUGGUGACCCGGACAGGGUUCUGCACGGCAAAAGGGGGCCUGGUGAGCUCCAUCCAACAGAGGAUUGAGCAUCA: 0.0525 ratio
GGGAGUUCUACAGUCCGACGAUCAAAUUUCCCCUCCUGAGGCCUUCUCCAAAGUUGGAGUCUCUUACAGAUGCCUCAUCCCCUGUUAGCGUUUUAGUUUGGACCACCCAGCCUUGGACAAUUCCCGCCAACCAGGCAAUUUGCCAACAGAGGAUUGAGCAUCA: 1.53 ratio

Block 3
Target: Interferon regulatory factor 7, full length, phosphomimetic (IRF7, Homo sapiens, UniProt Q92985, residues 1-503, S471D/S472D/S475D/S476D/S477D/S483D/S484D/S487D)
Chain of UniProt Q92985 (whole entry, unmodified, looked up): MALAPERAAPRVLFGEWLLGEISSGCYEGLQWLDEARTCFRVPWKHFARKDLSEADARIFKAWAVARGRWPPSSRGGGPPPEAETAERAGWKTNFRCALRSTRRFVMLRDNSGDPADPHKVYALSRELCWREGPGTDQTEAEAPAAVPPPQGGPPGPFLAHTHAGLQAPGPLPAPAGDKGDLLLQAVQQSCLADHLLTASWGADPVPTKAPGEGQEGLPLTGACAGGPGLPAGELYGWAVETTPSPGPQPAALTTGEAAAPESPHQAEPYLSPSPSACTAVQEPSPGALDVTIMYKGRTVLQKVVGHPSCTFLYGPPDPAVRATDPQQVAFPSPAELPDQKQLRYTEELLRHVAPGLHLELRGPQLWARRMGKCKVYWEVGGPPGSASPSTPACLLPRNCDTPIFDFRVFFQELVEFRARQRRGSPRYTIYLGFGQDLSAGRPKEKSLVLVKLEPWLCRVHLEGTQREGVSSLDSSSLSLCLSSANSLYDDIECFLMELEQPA
Technique: protein-binding microarray
Form: double-stranded DNA, one strand shown
Matrix: in vitro
Concentration: 2200 nM top
Notes: 60-bp whole probe
Together with: salmon DNA 0.4 mg/ml
Baseline: random background probes
Direction: higher = stronger binding
Measurement: fitted relative affinity
All sequences stand within: GCCTAGCAC … GTCTTGATTCGCTTGACGCTGCTG
TCAACTTGGAATTTCCCACTGTGCTAG: 0.829 z-score
TTCCCTCTGCTCCTCTTTTTGTGCTAG: 3.01 z-score
GACGATCTCCTTCTCCTGACGTGCTAG: 1.17 z-score
TTAGGTTTCGTGTTTCGGTTAGTGCTA: 9.13 z-score
GACGGTTTCCTTATCCTGATGTGCTAG: 2.74 z-score
TCAGGTATCGGGTATCGGTTAGTGCTA: 1.33 z-score
CTTCTCCTCTAGGTTCTCTGAGTGCTA: 1.17 z-score
CCCAAGATTGCCGTTTCCTAAGTGCTA: 0.526 z-score
GACGTTTTCGACTATCGGGACGTGCTA: 3.9 z-score
TTAGGTACCGGGTATCGGTTAGTGCTA: -0.0437 z-score
TTAGATTTCGGGTATCGATTTGTGCTA: 3.41 z-score
GACCATATCGGGTATCGAGACGTGCTA: -0.147 z-score
TTTGCTTTCCTTCATGCACTGTGCTAG: 2.99 z-score
CAGGAATGGCACCAGCAGGGGTGCTAG: -1.02 z-score
TACAATTTGCTTTAGTCATTGTGCTAG: 0.761 z-score
TCATTTACAGGTTCTCTTACTGTGCTA: 1.74 z-score
TTAGGTTTCCTTTTCCTCTAGTGCTAG: 5.03 z-score
GACGTTCTCGGACTGGGGACGTGCTAG: -0.226 z-score
ATTAGAGGATAACTTACAGAGTGCTAG: -0.626 z-score
GACGGACTGGGGCTTCGGGACGTGCTA: -0.668 z-score
GACGGACTGGACATTGGGGACGTGCTA: -0.824 z-score
TTGGGTCTCCTTATCCTTTAGTGCTAG: 0.992 z-score
TTAGATTCCAGTTTCGATTGGTGCTAG: 9.42 z-score
CCAGGCTGAAAGACCTCTGAGTGCTAG: -0.963 z-score
GACGGTCTCCCTATCCTGACGTGCTAG: 0.907 z-score

Block 4
Target: RNA binding protein fox-1 homolog 2, RRM domain, GST-SBP tag (RBFOX2, Homo sapiens, UniProt O43251-10, residues 100-194)
Technique: RNA Bind-n-Seq
Form: RNA
Matrix: in vitro
Concentration: 365 nM
Notes: natural RNA segment, single round, ends assumed
Baseline: no-protein control
Direction: higher = stronger binding
Measurement: RBNS enrichment (R)
Residues (chain): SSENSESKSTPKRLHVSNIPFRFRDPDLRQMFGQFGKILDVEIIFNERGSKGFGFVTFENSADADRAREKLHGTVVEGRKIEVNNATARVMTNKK
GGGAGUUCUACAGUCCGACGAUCCUGCCGAGAAACUUUCAGUAGAUGAAGUCUCACAGUUGGUGAUUUCUCCGCUCUGUGGUGCAAUAUCCCUAUUUGUAGGGACUACAAGAAAUAACUUUGAAGGGAAAAAAUGGAAUUCUCGGGUGCCAA: 0.503
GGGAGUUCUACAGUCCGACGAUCGGAAGAGUGACCUGGCAUCUUGGAAAUCAUUGUGUGUCUUCAGGAGAAUGUGCAGUGUCUUGUAACAACUAAUUAUAAUGCAAAUUAGGGCUACAUUGUAAUCUGCUUUGUGGAAUUCUCGGGUGCCAA: 2.53
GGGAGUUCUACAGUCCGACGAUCAUGAAGAAGGGUGUGAAGGCUGAACAAUCAUGGAUUUUUCUGAUCAAUUGUGCUUUAGGAAAUUAUUGACAGUUUUGCACAGGUUCUUGAAAACGUUAUUUAUAAUGAAAUGGAAUUCUCGGGUGCCAA: 0.738
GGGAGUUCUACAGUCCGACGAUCUCCCAUGCCACAAAGCAUCUCUCCACCCCCUUUUCAAGGAAUGCAGUUCUACAAACUGAUCUCCUUAACCACAACCAAGAUAGGCAUGUCACCAUGUCAAUUCCCCUUUUUGGAAUUCUCGGGUGCCAA: 0.427
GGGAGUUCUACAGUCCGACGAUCUGCAGUAUGGCUGUGAUUUCUGCUUCUCCAUGUAGGGGAGCAUGGGACAUCCACUGCCACGCCAAACUCAACUUACCAAUACAUUACGGCCUUGAAAGGGAGCAGAGAGUUGGAAUUCUCGGGUGCCAA: 0.33
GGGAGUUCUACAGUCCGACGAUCCAGCUCAGUUCCCUAUGUUUAUGCUGUGUUGUUCCCACCUCAGUGCUGUCAGCCUUUGGGACAGUGGCUCUCAAAAGCCAAGAGCUCUUGGUUUAUCUGCACAGUACAAGUGGAAUUCUCGGGUGCCAA: 0.437
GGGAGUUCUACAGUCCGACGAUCAGAUCUCACAGAUGUCAGAACUGCUGGAACUAUGAAAUGGGGUAUAUAACCACGACUCUGGUGGGGAAAACCGUUUUUUAAAGGACACACACACACACAGCGAUGCAUCUUGGAAUUCUCGGGUGCCAA: 1.32
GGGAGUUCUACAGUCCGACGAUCAAUCUUUCUGAACUCCUGACUUACUCCAGUACACAAUGCCAAUCGCUGCACCAUUUGAUGUGCAUGUUUCAGCCCCUUUCAUUCUAAUUAUCCUAUUUCAAGUUUAUGGUUGGAAUUCUCGGGUGCCAA: 5.27
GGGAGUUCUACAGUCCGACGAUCGACUUUGUUUUUCUAGUUUCUUUUUUUUUUCUAAGAAGAGACUUGGAACGAGUCUGAUUCAUGGUGUUAAUAGAGGCUUCUUGUUUUAGGAAGCUUUGCUUACACUCUGGUGGAAUUCUCGGGUGCCAA: 0.251
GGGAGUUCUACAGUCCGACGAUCUCAUUUUCCCCAGACACUACAUUUGGAUACAGGUGCCAAAGAACAUUAUUAAGGAAUUAUUUAGAAACAAUGUGUCUAGUUUAAGAAAGUGGUUUUCAGUAUUGUGACAAUGGAAUUCUCGGGUGCCAA: 0.506
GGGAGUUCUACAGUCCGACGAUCACCAGAGUUCAUUUAUCCUUGAAUAAACCUUUUUAUUUUCACCUCAGAAAAGUGAGUGUACUGGCAGUUAGUGUCACUGCUUUGCACAGUCCCCAUUAAAGGACCCUCCAUGGAAUUCUCGGGUGCCAA: 0.337
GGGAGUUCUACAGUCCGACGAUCAGUGCCUCUACUGAAUUAUUCCUCUUUUAAAUGGUUAAUGAACCAAUAAUUUUUAAAUCAUACCAAAAAUAGUAAGAAAAUAUGCAAACACUCUGUGAUCAAACUUAAAAUGGAAUUCUCGGGUGCCAA: 0.676

Block 5
Target: Sal-like protein 4, full length isoform A (SALL4, Homo sapiens, UniProt Q9UJQ4, residues 1-1053)
Chain of UniProt Q9UJQ4 (whole entry, looked up): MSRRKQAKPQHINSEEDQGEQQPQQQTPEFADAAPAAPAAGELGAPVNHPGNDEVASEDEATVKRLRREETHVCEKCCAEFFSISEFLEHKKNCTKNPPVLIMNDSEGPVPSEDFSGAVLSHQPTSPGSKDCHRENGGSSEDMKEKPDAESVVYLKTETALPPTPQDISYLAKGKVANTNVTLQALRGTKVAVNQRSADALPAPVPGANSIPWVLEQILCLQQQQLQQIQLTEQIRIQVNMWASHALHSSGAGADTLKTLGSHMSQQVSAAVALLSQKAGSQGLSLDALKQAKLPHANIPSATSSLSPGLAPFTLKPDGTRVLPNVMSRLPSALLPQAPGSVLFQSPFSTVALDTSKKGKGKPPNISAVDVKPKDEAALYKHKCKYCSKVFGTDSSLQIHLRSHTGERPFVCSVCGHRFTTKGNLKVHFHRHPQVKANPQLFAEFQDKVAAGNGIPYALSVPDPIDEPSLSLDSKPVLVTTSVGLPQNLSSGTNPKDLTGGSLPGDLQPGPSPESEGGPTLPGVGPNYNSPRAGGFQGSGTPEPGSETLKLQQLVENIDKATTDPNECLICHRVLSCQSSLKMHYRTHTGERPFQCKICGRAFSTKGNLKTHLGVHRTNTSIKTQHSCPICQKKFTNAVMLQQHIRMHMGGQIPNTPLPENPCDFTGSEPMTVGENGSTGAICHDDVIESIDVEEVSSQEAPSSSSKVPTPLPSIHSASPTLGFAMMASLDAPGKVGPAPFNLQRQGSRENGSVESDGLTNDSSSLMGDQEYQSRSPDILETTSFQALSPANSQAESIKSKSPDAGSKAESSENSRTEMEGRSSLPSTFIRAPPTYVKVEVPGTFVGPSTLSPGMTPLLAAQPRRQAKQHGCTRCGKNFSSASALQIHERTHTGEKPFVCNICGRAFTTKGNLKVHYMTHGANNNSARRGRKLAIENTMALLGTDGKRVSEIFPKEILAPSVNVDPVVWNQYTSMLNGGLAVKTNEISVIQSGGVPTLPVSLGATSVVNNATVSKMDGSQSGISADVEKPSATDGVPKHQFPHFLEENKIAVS
Technique: universal PBM
Form: double-stranded DNA, one strand shown
Matrix: in vitro
Concentration: 600 nM
Notes: 8-mer, flanks averaged, mean of replicates
Direction: higher = stronger binding
Measurement: E-score
ATCCGTTA: 0.157
GACACCAC: -0.286
ATAATAAC: 0.457
CGCCCGCG: -0.368
CCCGAATA: 0.119
AAGGCCGT: -0.177
ATGCAGAA: 0.144
ACGATGTG: 0.102
GAGCGAAA: 0.00208
AACAGTCC: -0.0859
AGTTATAC: 0.226
ATCTTCCA: 0.0971
AGCGCGGC: -0.315
ACGTGAGC: -0.211
AGTTTTGG: 0.0759
CCTGCTGA: -0.0348
TCAATTCA: 0.228

For quick reference, copied from above (block 3):
GACCATATCGGGTATCGAGACGTGCTA: -0.147 z-score
TTTGCTTTCCTTCATGCACTGTGCTAG: 2.99 z-score
CAGGAATGGCACCAGCAGGGGTGCTAG: -1.02 z-score
TACAATTTGCTTTAGTCATTGTGCTAG: 0.761 z-score
TCATTTACAGGTTCTCTTACTGTGCTA: 1.74 z-score
TTAGGTTTCCTTTTCCTCTAGTGCTAG: 5.03 z-score
GACGTTCTCGGACTGGGGACGTGCTAG: -0.226 z-score
ATTAGAGGATAACTTACAGAGTGCTAG: -0.626 z-score
